# Published values collected from several papers.
# Every numbered part comes from another study and shows a few of its results, in no order. Substitutions count along the parent as printed.

# Study 1 — technique: DHFR PCA, deep sequencing; sample: yeast; added: (+)-ABA 0.39 µM; relative to: wild-type fitted maximum; direction: higher = stronger binding
# Target: ABI1, truncated, D143A, DHFR fusion (Arabidopsis thaliana)
# Setting: methotrexate growth selection, single substitutions
# Parent: PYL1, truncated, DHFR fusion (Arabidopsis thaliana); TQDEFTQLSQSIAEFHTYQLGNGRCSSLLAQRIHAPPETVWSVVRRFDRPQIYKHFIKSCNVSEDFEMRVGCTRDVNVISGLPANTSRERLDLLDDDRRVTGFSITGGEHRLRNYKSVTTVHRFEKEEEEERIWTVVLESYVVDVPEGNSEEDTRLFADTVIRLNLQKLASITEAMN
Variant,relative binding score [%]
L29T,-4.31
V121D,3.69
C25V,65.5
Q31M,1.11
G148N,0.293
I57V,33.5
T17A,20.1
G108C,1.99
E139Q,49.6
V62R,-0.25
V137K,-0.693
V70T,13.2
F47D,14.2
I12M,6.77
E174M,-13.6

# Study 2 — target: human cyclin B2; effect on: peptide binding; technique: yeast competitive growth sequencing; form: peptide; organism: Saccharomyces cerevisiae; strain: cyclin B2-Cln2 fusion; tested at: concentration not given; setting: peptide tiling library; direction: direction not given
Sequence,binding enrichment score
VLLKRLQDVVSERANH,0.474
RDLFDCDFGDLTPLDF,-0.334
KPHVSDEEEEEPPFYH,0.388
NARRSLNFGGSTGT,-0.0262
SCCKRKLVVGNGPEGP,-0.878
VEEEFFALRKRTPSAG,0.832
AIRKMREDRWAVIAKM,0.109
RNRGPKLNAMLRLGVL,0.219
IPDRSTKPVVFSPT,-0.856

# Study 3 — technique: protein-binding microarray; form: double-stranded DNA, one strand shown; sample: in vitro; tested at: 2200 nM top; setting: 60-bp whole probe; added: salmon DNA 0.4 mg/ml; relative to: random background probes; direction: higher = stronger binding; shared flanks, not repeated: GCCTAGCAC … GTCTTGATTCGCTTGACGCTGCTG
# Target: Interferon regulatory factor 7, full length, phosphomimetic (IRF7, Homo sapiens, UniProt Q92985, residues 1-503, S471D/S472D/S475D/S476D/S477D/S483D/S484D/S487D)
# Residues (chain): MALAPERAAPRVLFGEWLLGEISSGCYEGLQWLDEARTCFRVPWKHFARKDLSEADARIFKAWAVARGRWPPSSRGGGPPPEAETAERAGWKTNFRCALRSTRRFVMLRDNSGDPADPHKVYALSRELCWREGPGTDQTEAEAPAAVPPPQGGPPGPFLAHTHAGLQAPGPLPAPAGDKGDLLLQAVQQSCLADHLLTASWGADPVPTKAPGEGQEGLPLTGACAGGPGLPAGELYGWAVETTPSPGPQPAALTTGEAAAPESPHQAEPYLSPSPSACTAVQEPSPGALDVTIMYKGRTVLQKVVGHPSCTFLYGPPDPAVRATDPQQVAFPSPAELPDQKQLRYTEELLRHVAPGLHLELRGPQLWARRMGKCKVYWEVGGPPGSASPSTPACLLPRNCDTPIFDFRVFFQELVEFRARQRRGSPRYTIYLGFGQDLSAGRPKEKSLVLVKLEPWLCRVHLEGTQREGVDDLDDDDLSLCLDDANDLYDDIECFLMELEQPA
Oligonucleotide,fitted relative affinity [z-score]
TTAGGTTTTGGTCTCGGTTAGTGCTAG,1.41
GACGATTTCAGTTACGAGACGTGCTAG,0.997
TTAGGTCTCCGACTGGGTTAGTGCTAG,-0.627
GACGATTTCAGACTCGAGACGTGCTAG,0.479
GACGAACTGAGTCACGAGACGTGCTAG,0.0166
TTAGGTTTTGGGTTTCGGTTAGTGCTA,4.95
CCTCGTCTCTATCAAAAATAGTGCTAG,1.41
CTCATTTTCATTTTGTGTCTGTGCTAG,7.06
GACGGTTTCGGGTTTCGTGACGTGCTA,9.02
GACGATCTCAGGTTCGAGACGTGCTAG,0.387
GACGGTCGCGGTATCGGGACGTGCTAG,-0.406

# Mixed results
Molecule,target,assay,test system,setting,how to read,quantity,result
"PhoQ, residues 284 288 289 292 302 303 GTAMQF","PhoP, residues 12 14 15 18 19 NFCKL (Escherichia coli, UniProt P23836)","Sort-seq, measured: YFP reporter",E. coli,"PhoQ-PhoP variant library, added: 10 µM Mg2+","relative to: high Mg2+ state, higher = stronger signaling",fold induction,0.672

# Some of these lines once more (study 1):
Variant,relative binding score [%]
V62R,-0.25
V137K,-0.693
V70T,13.2
F47D,14.2
